# Measured values pooled from the literature.
# Compare with care: the assays were run in different laboratories. ± marks the error that the study gave.
SMILES,test system,conditions,concentration
CN(C(=O)n1cnc(-c2ccc[n+]([O-])c2)c1)C1CCCCC1,culture medium without cells,"100 nM, 24 h",111 ± 2.8 nM
CN(C(=O)n1cnc(-c2ccc[n+]([O-])c2)c1)C1CCCCC1,"Wistar rat, cerebellum","oral, 10 mg/kg, 4 h, single dose",112 ± 34.8 ng/g
N#C/N=C1\SCCN1Cc1ccc(Cl)nc1,soil,"0 days, nominal 1.1",0.6 mg/kg dry soil
O=C(Nc1cnccc1Cl)N1CCN(Cc2ccc3c(c2)OC(F)(F)O3)CC1,culture medium without cells,"100 nM, 3 h",88 ± 4.5 nM
O=C(Nc1cnccc1Cl)N1CCN(Cc2ccc3c(c2)OC(F)(F)O3)CC1,cell-free medium,"100 nM, 3 h",88 ± 4.5 nM
O=C(Nc1cccnn1)N1CCC(=Cc2cccc(Oc3ccc(C(F)(F)F)cn3)c2)CC1,culture medium without cells,"100 nM, 24 h",29.2 ± 1.2 nM
Cc1c(C(=O)O)ccc2c3n(nc12)[C@@H]1[C@H](C3)N(CC2CC2)[C@@]2(C(=O)Nc3cc(Cl)ccc32)[C@H]1c1cccc(Cl)c1F,"athymic nude mice, normal brain","oral, 2 mg/kg, 24 h",6 ± 7 nM
C/C(=N\C#N)N(C)Cc1ccc(Cl)nc1,soil,"56 days, nominal 1.1",0.021 mg/kg dry soil
CN1CCN(S(=O)(=O)c2cc([N+](=O)[O-])ccc2N(CCOS(C)(=O)=O)CCOS(C)(=O)=O)CC1,"NSG mice female, plasma","intraperitoneal, 5 mg/kg, 0.25 h",1550 nM

# Excerpt of the above:
SMILES,test system,conditions,concentration
N#C/N=C1\SCCN1Cc1ccc(Cl)nc1,soil,"0 days, nominal 1.1",0.6 mg/kg dry soil
